Experimental data from different studies.
A part holds a random share of what one study measured. Substitutions count along the parent as printed.

Set 1 — technique: aptamer microarray, sandwich; form: DNA with 2'F-ANA; medium: in vitro; concentration: 200 nM; with: Cy3 exosite-II aptamer, 400 nM; direction: higher = stronger binding; strand: GGTTGGTGTGGTTGG
Target: Prothrombin, mature alpha-thrombin (F2, Homo sapiens, UniProt P00734)
Notes: whole 15-mer aptamer, many near background
| Modification | mean fluorescence intensity |
| --- | --- |
| 2'F-ANA at 1 4 6 7 10 11 12 14 | 75.8 a.u. |
| 2'F-ANA at 3 6 9 11 12 14 | 545 a.u. |
| 2'F-ANA at 2 3 4 6 9 10 11 14 | 141 a.u. |
| 2'F-ANA at 1 2 4 5 7 8 9 10 11 12 14 | 48 a.u. |
| 2'F-ANA at 2 3 5 6 9 10 14 | 48.1 a.u. |
| 2'F-ANA at 2 4 6 9 13 15 | 145 a.u. |
| 2'F-ANA at 2 9 13 14 | 123 a.u. |
| 2'F-ANA at 1 2 7 10 12 14 15 | 49.7 a.u. |
| 2'F-ANA at 1 2 4 5 9 11 13 15 | 182 a.u. |
| 2'F-ANA at 2 3 6 12 14 15 | 435 a.u. |
| 2'F-ANA at 2 5 7 12 13 14 15 | 66.8 a.u. |
| 2'F-ANA at 1 5 6 9 11 12 13 15 | 66.2 a.u. |
| 2'F-ANA at 2 4 6 7 8 9 11 12 13 15 | 247 a.u. |
| 2'F-ANA at 1 2 5 6 7 8 9 10 13 14 15 | 67.5 a.u. |
| 2'F-ANA at 1 4 6 8 10 12 14 | 63.3 a.u. |
| 2'F-ANA at 1 2 6 9 12 15 | 292 a.u. |
| 2'F-ANA at 1 3 4 5 7 9 10 12 13 14 | 47.8 a.u. |
| 2'F-ANA at 1 4 6 9 10 12 14 15 | 70.3 a.u. |
| 2'F-ANA at 4 8 9 10 12 15 | 129 a.u. |
| 2'F-ANA at 6 10 11 15 | 140 a.u. |
| 2'F-ANA at 1 2 4 5 7 11 14 | 76 a.u. |

Set 2 — technique: RNA Bind-n-Seq; form: RNA; medium: in vitro; concentration: 1 µM; notes: whole 134-nt RNA, ends assumed; with: 150 mM KCl; baseline: input library; direction: higher = stronger binding
Target: Ras GTPase-activating protein-binding protein 1, RRM domain (G3BP1, Homo sapiens, UniProt Q13283)
Sequence of UniProt Q13283 (whole entry, looked up): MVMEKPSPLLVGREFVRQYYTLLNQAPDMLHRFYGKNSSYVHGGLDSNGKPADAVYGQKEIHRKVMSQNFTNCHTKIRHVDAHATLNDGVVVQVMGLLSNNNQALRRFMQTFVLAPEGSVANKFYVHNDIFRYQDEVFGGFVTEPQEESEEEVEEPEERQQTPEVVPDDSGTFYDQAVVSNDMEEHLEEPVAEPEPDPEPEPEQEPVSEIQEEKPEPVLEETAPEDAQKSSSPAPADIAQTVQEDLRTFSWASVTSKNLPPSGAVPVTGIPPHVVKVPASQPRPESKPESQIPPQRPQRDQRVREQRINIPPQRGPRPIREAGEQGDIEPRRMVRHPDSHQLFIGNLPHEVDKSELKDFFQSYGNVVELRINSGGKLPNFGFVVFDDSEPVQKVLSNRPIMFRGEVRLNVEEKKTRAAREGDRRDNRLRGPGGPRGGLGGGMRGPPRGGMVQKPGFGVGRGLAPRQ
| Strand | log2 enrichment |
| --- | --- |
| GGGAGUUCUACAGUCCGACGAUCCCUGUGCUACACAUCGUAUGUACCGAAUCGGGGUUUUUUUGGUUUUUUUGGGUUUUUUUGGAAAGUAUUAUGUUACGCCGUUCGGAUCUGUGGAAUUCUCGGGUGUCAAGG | -0.195 |
| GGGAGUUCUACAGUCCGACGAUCUGGGUUCUUAUUUCUAACUUGCAUAUGUUUUGUUUUUCAGAAGGAGUUGAGCCUUCCAAGAAGAGGCAGCUUGUAAGUAGAUGAUUAUUAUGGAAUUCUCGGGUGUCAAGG | -0.249 |
| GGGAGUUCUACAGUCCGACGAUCUCCUGUGCUACACAUCGUAUGUACCGAAUCAAAUUUUUUUAAAUUUAAAUUUUUUUAAAAAAGUAUUAUGUUACGCCGUUCGGAUCUGCAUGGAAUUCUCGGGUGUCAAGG | -0.023 |
| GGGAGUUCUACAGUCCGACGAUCGCAGGAAGUAAAAACAAAUGGAAAUGCUUCGGAUAGUGGCAGGGGUGGGGGUCGCUAAGGAAAGGGUGGGAUGGGAGUGGGUAAAGAGUUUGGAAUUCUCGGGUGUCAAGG | 0.716 |
| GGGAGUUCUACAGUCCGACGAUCCCUGUGCUACACAUCGUAUGUACCGAAUCGGGAAAAAAGGAAAAAAGGGGAAAAAAGGGGAAAGUAUUAUGUUACGCCGUUCGGAUCUGCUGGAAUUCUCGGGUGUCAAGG | -0.06 |
| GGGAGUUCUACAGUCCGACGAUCUGGCCCUGGUGGCAUGCGGGGAGGAAGAGGUGGCCUCAUGGAUCGUGGUGGUCCUGGUGGAAUGUUCAGAGGUGGCCGUGGUGGAGACAGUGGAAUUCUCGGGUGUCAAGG | 0.405 |
| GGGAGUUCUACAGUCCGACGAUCACCAUGCAGGUGGGCAUCUUUGGGAAGUGGGGCAAGGGGGUGAUAGGGAGGGGGGUAACACUUUGGGAACAGGUGGUCCCAGGUCGUUUCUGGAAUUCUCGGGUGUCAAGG | 1.12 |
| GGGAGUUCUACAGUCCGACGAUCUCCUCAAGUCCUGUGCUACACAUCGUAUGUACCGAAUCGGUGGUGGUUUGGAAAGUAUUAUGUUACGCCGUUCGGAUCUGCACUUCCAGCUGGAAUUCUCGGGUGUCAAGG | -0.224 |
| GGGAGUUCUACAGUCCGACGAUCCAAGUCCUGUGCUACACAUCGUAUGUACCGAAUCGGCCCCGGCCCCGGGCCCCGGGAAAGUAUUAUGUUACGCCGUUCGGAUCUGCACUUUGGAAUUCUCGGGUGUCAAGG | -1.25 |
| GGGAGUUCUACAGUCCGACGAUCGUCCUGUGCUACACAUCGUAUGUACCGAAUCAAAUUUUUAAAUUUUUUUAAAUUUAAAAAAGUAUUAUGUUACGCCGUUCGGAUCUGCACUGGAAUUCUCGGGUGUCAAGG | -0.882 |
| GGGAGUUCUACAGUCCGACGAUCAAGUCCUGUGCUACACAUCGUAUGUACCGAAUCGGGGCCCCGGCCCCGGCCCCGGGGAAAGUAUUAUGUUACGCCGUUCGGAUCUGCACUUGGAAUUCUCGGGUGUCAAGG | -0.819 |
| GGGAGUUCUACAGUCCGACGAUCCUGUGCUACACAUCGUAUGUACCGAAUCAAACCCCCCCAAAUUUUUUUAAAUUUUUUUAAAAAAGUAUUAUGUUACGCCGUUCGGAUCUGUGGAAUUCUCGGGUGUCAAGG | -0.527 |
| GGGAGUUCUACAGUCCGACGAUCUGCCUCGGGAGGAGCUGUUUGUGACAUCCAAGCUGUGGAACACCAAGCACCACCCCGAGGAUGUGGAGCCUGCCCUCCGGAAGACUCUGGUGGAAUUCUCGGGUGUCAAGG | -0.617 |
| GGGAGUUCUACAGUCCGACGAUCCACAGACAACACGCACCCACACAGACACAGAGGGAAGGGGUUGGGAUGGGGACAGGGUGUACAGCAGGGCGGGGUAGGACCCCAGCCCCUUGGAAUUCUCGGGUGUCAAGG | -0.0979 |

Set 3 — technique: protein-binding microarray; form: double-stranded DNA, one strand shown; medium: in vitro; concentration: 0.8 µM; notes: whole 60-bp probe, no competitor; direction: higher = stronger binding
Target: Centromere-binding protein 1, full length, N-terminal tag (CBF1, Saccharomyces cerevisiae, UniProt P17106, residues 1-351)
Sequence of UniProt P17106 (whole entry, looked up): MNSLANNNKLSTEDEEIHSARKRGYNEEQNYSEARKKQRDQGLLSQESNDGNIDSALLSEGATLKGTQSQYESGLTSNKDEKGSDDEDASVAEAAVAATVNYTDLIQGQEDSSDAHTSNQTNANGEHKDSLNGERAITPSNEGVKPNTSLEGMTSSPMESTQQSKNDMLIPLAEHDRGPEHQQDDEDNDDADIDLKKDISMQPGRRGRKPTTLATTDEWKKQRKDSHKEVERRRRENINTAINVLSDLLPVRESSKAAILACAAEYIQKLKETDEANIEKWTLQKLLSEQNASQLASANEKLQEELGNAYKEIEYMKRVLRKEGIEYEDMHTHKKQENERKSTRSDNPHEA
| Strand | fluorescence intensity |
| --- | --- |
| TGTACGAAGCTATTTTATCTGATTATAGTAGTTAGGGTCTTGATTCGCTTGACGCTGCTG | 520 a.u. |
| CTAGCAGGCAATAGCCATCACAGCAGTTTAGTATTCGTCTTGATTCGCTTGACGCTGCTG | 523 a.u. |
| CTATTTACATCTTGACATCACATACATAATATGTTCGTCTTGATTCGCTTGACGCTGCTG | 543 a.u. |
| CTACACCGCTCAGATCATCAGGGATAAACACTATTCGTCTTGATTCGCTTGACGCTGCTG | 540 a.u. |
| TGTACGAAGCTATCAGATGTGACTATAGTAGTTAGGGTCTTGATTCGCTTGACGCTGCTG | 533 a.u. |
| TGTACGAAGCTATCTGACGTCAATATAGTAGTTAGGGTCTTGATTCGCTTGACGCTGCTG | 506 a.u. |
| GAACGTGAAAATTGTAACACCACCTTGAAGTGCTAGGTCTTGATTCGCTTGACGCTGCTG | 518 a.u. |
| CTATAGGAGTATAAGAGCGTGGGGAAACACAAATTCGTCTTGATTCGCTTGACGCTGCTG | 487 a.u. |
| GAAGATAATGTCTCACTCGTGCAGTCACATCTCTAGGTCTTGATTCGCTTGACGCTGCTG | 566 a.u. |
| GAAGCGTTGAAGTGTCACCATTGCCTATCCTTTTAGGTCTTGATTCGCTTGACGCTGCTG | 496 a.u. |
| TGTACGAAGCTATACGTGGCAACTATAGTAGTTAGGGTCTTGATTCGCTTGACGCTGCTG | 510 a.u. |
| TGTACGAAGCTATATCATGACGTTATAGTAGTTAGGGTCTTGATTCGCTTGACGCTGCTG | 536 a.u. |
| GAAAGAGGACCACCCCACGTGCCAGAATTGTTTTAGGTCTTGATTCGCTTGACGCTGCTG | 4260 a.u. |
| CTACCGGAAATAAAGCACATGTAAAGCATTGAGTTCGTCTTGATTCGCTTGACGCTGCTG | 724 a.u. |
| GAATTGAAAACGGGACACGTTATAACTACTTTCTAGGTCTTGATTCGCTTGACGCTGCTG | 558 a.u. |
| CTATATTTCAGCCTTATCGTGGTGGTACATGTATTCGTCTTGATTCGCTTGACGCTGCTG | 490 a.u. |
| CTATTGAGAAACAGTCACCAGATTTAGGGGAAGTTCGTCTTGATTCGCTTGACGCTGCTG | 560 a.u. |
| GAATGAGAACAATCAGGTGAGAGATGCCGTTTCTAGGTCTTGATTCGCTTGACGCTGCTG | 629 a.u. |
| CCTAACTACTATAATCATGTCATATAGCTTCGTACAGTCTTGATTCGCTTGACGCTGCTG | 548 a.u. |

Set 4 — target: CCND2, cyclin fold, Cln2 fusion (human); technique: yeast growth competition, sequencing; medium: yeast; notes: weak parent motif; baseline: not given; direction: higher = stronger binding
Starting sequence: PKN2 docking peptide (human); VSAVQKLDFSDTM; partner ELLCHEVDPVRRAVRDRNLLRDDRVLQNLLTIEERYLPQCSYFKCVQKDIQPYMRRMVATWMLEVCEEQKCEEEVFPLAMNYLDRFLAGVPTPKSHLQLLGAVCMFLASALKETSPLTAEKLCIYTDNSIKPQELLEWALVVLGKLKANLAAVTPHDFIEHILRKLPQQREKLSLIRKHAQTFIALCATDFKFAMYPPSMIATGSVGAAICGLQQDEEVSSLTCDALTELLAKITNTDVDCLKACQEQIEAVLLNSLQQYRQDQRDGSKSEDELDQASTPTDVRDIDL
| Substitution | normalised enrichment score |
| --- | --- |
| F9H | 0.122 |
| K6T | 0.211 |
| S10Y | 0.47 |
| M13D | 0.573 |
| A3Q | 0.31 |
| V1F | 0.989 |
| V4E | 0.17 |
| L7T | -0.00798 |
| D11A | 0.486 |
| F9A | 0.0635 |
| D8C | 0.286 |
| M13A | 0.537 |
| V4R | 0.333 |

Set 5 — technique: protein binding microarray; form: double-stranded DNA, one strand shown; medium: in vitro; concentration: not given; baseline: not given; direction: higher = stronger binding
Target: Histone acetyltransferase KAT6A, winged helix 1, GST fusion (KAT6A, Homo sapiens, UniProt Q92794, residues 1-85)
Notes: 8-mer, flanks averaged, mean of 2 arrays, mostly near background
Target sequence (chain): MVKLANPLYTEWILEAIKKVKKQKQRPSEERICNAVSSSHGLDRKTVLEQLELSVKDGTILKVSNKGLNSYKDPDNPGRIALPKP
| Strand | E-score |
| --- | --- |
| CCGCACAA | 0.163 |
| GCTACCGA | 0.233 |
| CGCGATCA | 0.229 |
| ACCGCCGT | 0.435 |
| CTTGTGGA | -0.157 |
| AAAAGTGT | -0.14 |
| CGAGGGGA | 0.0449 |
| ATCTAAAT | -0.128 |
| CAATGACG | 0.00851 |
| ATAGGTGA | -0.256 |
| CTAGGATC | -0.0745 |
| GCAGGTCC | -0.04 |
| CCTGATTA | -0.114 |
| GACTTGGA | -0.187 |
| CAATAAGC | 0.125 |
| AGAAGAAT | -0.173 |

Repeated from above (set 3):
| Strand | fluorescence intensity |
| --- | --- |
| CCTAACTACTATAATCATGTCATATAGCTTCGTACAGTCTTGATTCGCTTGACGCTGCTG | 548 a.u. |
| GAAGCGTTGAAGTGTCACCATTGCCTATCCTTTTAGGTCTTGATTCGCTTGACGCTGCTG | 496 a.u. |
| TGTACGAAGCTATACGTGGCAACTATAGTAGTTAGGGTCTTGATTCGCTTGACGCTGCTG | 510 a.u. |
| GAAAGAGGACCACCCCACGTGCCAGAATTGTTTTAGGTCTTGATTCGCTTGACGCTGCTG | 4260 a.u. |
| CTAGCAGGCAATAGCCATCACAGCAGTTTAGTATTCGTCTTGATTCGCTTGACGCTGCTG | 523 a.u. |
| CTATTTACATCTTGACATCACATACATAATATGTTCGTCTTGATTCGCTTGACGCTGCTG | 543 a.u. |
| TGTACGAAGCTATATCATGACGTTATAGTAGTTAGGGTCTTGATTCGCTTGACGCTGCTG | 536 a.u. |
| TGTACGAAGCTATCAGATGTGACTATAGTAGTTAGGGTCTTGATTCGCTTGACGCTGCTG | 533 a.u. |
| GAAGATAATGTCTCACTCGTGCAGTCACATCTCTAGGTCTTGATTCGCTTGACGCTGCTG | 566 a.u. |
| TGTACGAAGCTATTTTATCTGATTATAGTAGTTAGGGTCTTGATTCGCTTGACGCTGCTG | 520 a.u. |
| CTACCGGAAATAAAGCACATGTAAAGCATTGAGTTCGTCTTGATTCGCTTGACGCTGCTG | 724 a.u. |
| CTATTGAGAAACAGTCACCAGATTTAGGGGAAGTTCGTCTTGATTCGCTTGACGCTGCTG | 560 a.u. |
